# Published values of several laboratories.
# Lines come from different studies, so protocols differ. Numbers after ± are the reported error.
# ISOC2: Isochorismatase domain-containing protein 2 (ISOC2, Homo sapiens, UniProt Q96AB3)
# Tumor necrosis factor receptor superfamily member 1A extracellular domain: Tumor necrosis factor receptor superfamily member 1A, extracellular domain (Homo sapiens, UniProt P19438)
# FKBP4 FK1 domain: Peptidyl-prolyl cis-trans isomerase FKBP4, FK1 domain (FKBP4, Homo sapiens, UniProt Q02790)
# 14-3-3 protein epsilon: 14-3-3 protein epsilon (Homo sapiens, UniProt P62258)
# CA2: Carbonic anhydrase 2 (CA2, Homo sapiens, UniProt P00918)
# INS amyloid fibrils: Insulin, amyloid fibrils (INS, Bos taurus, UniProt P01317)
SMILES,tested on,assay,system,conditions,endpoint,value
C=CC(=O)N1C[C@H](C)N(c2nc(OC[C@@]34CCCN3C[C@H](F)C4)nc3c(F)c(-c4ccc(F)c5sc(N)c(C#N)c45)c(C(F)(F)F)cc23)C[C@H]1C,"GTPase KRas, GDP-bound (KRAS, Homo sapiens, UniProt P01116, A146T)",SPR,,,Kd,0.00188 ± 0.00068 µM
COc1ccc(Cn2ccc3ccc(C(=O)NO)cc32)cc1,ISOC2,"inhibitor, competition pulldown",SW620 and MV4-11 lysate,1 h,Kd,> 30.2 µM
O=C1Nc2ccc(Cl)cc2[C@@](C#CC2CC2)(C(F)(F)F)O1,"ALDH1B1 (Homo sapiens, UniProt P30837)","binding, SPR",,,Kd,13.4 µM
Cc1cccc2c1N(C(=O)n1ccnn1)CC2,"KAI2 (Arabidopsis thaliana, UniProt Q9SZU7, F134A)",ITC,,"F134A mutant, mean",Kd,10.9 µM
CCc1nc2cc3ccccc3cc2cc1C(=O)N1CCC[C@H]1C(=O)N[C@@H](C/C=C/C[C@H](NC(=O)[C@@H]1CCCN1C(=O)c1cc2cc3ccccc3cc2nc1CC)C(=O)N[C@@H](CCCCN)C(=O)NCCCN)C(=O)N[C@@H](CCCCN)C(=O)NCCCN,(CUG)2 RNA,SPR,,,Kd,0.01 µM
Nc1ncc(-c2cc(-c3cnn(CC(F)(F)F)c3)ncc2F)nc1C(=O)NC1CNCC(F)C1 (stereo not drawn),"CHEK2 (Homo sapiens, UniProt O96017)","binding, competition with immobilised ligand",,,Kd,0.12 µM
CCCCNc1ccc(-c2ccnc(C(=O)O)c2)cc1,Tumor necrosis factor receptor superfamily member 1A extracellular domain,"binding, SPR OneStep",,,Kd,521 ± 39 µM
CC(/C=C/C(=O)NO)=C\[C@@H](C)C(=O)c1ccc(N(C)C)cc1,"GATD3 (Homo sapiens, UniProt P0DPI2)","inhibitor, competition pulldown",SW620 and MV4-11 lysate,1 h,Kd,> 30.2 µM
C=C[C@H]1CN(Cc2ccccn2)C(=O)[C@@H]2CCC[C@H]1N2[S@@+]([O-])c1cc(Cl)cc(Cl)c1,FKBP4 FK1 domain,competitive fluorescence polarization,,"protein 10 nM, together with: 1 nM tracer",Kd,5.21 µM
CC(=O)N[C@@H](CCCNC(=N)N)C(=O)N[C@H](C(=O)N[C@@H](CCCCN)C(=O)N[C@@H](CO)C(=O)N[C@@H](CCCNC(=N)N)C(=O)N[C@H](C(=O)N[C@@H](Cc1c[nH]c2ccccc12)C(=O)N[C@@H](C)C(=O)NCC(N)=O)[C@@H](C)OP(=O)(O)O)[C@@H](C)O,14-3-3 protein epsilon,"binding, SPR",,,Kd,0.119 µM
O=C(NO)c1cnc(NC2(c3cccc(F)c3)CCCCC2)nc1,ISOC2,"inhibitor, competition pulldown",SW620 and MV4-11 lysate,1 h,Kd,> 30.2 µM
NS(=O)(=O)c1ccc(CN2C(=O)c3ccc(N4CCOCC4)cc3C2=O)cc1,CA2,binding,,,Kd,0.24 µM
F[B-]1(F)OC(c2ccc(N(c3ccccc3)c3ccccc3)cc2)=Nc2sc3cc(C(F)(F)F)ccc3[n+]21,INS amyloid fibrils,"binding, fluorescence saturation",,,Kd,0.297 ± 0.05 µM
CC(=O)N[C@@H](CCCNC(=N)N)C(=O)N[C@H](C(=O)N[C@@H](CCCCN)C(=O)N[C@@H](CO)C(=O)N[C@@H](CCCNC(=N)N)C(=O)N[C@H](C(=O)N[C@@H](Cc1c[nH]c2ccccc12)C(=O)N[C@@H](C)C(=O)NCC(=O)N[C@@H](CCC(=O)O)C(=O)N[C@@H](CCCCN)C(=O)N[C@@H](CO)C(=O)N[C@@H](CCCCN)C(=O)N[C@@H](CCCNC(=N)N)C(N)=O)[C@@H](C)OP(=O)(O)O)[C@@H](C)O,14-3-3 protein epsilon,"binding, SPR",,,Kd,0.15 µM
O=C(NC1CCCc2c1[nH]c1ccccc21)c1n[nH]c2c1CCC2 (stereo not drawn),"PHF8 (Homo sapiens, UniProt Q9UPP1)",binding,,,Kd,0.24 µM
O=C(O)c1cc(-c2ccc(F)cc2)ccn1,Tumor necrosis factor receptor superfamily member 1A extracellular domain,"binding, SPR OneStep injection",,"fragment hits, kinetic fit",Kd,1330 ± 50 µM
COC1(C2=NCCN2)COc2ccccc2O1 (stereo not drawn),α2-adrenergic receptor chimera,[3H]compound saturation binding,HEK293 membranes,α2c(NT)/α2a(TM1-CT)-AR chimera,Kd,0.00165 ± 0.0001 µM
C=CC1CN(Cc2ccccn2)C(=O)C2CCCC1N2S(=O)(=O)c1cc(Cl)cc(Cl)c1 (stereo not drawn),FKBP4 FK1 domain,competitive fluorescence polarization,,"protein 10 nM, together with: 1 nM tracer",Kd,0.092 ± 0.002 µM
O=C(O)c1ccc(-c2ccc3[nH]ccc3c2)nn1,Tumor necrosis factor receptor superfamily member 1A extracellular domain,"binding, SPR OneStep",,,Kd,198 ± 87 µM
C=CC(=O)N1CCCN(C(=O)c2cc(Sc3cnc(NC(=O)C4CC4)s3)c(C)cc2OC)C[C@H]1C,"EGFR (Homo sapiens, UniProt P00533)","cell-free assay, competition with immobilised ligand",,,Kd,> 10 µM
COc1cc(-c2ccc(N3CCOCC3)cc2)cc(C=O)c1O,"Serine/threonine-protein kinase/endoribonuclease IRE1 (Mus musculus, UniProt Q9EQY0, N772Y)",microscale thermophoresis,,,Kd,55.7 µM
CC(=O)N[C@@H](CC(C)C)C(=O)N[C@@H](CCCNC(=N)N)C(=O)NCC(=O)N[C@@H](CO)C(=O)NCC(=O)N[C@@H](C)C(=O)N[C@@H](Cc1c[nH]c2ccccc12)C(=O)NCC(=O)N[C@@H](CC(C)C)C(=O)N[C@@H](CC(C)C)C(=O)N[C@@H](CC(C)C)C(=O)N[C@@H](CCCNC(=N)N)C(=O)N[C@@H](CCCNC(=N)N)C(=O)N[C@H](C(=O)NCC(=O)N[C@@H](CC(=O)O)C(=O)N[C@@H](CC(=O)O)C(=O)N[C@H](C(=O)N[C@@H](CC(C)C)C(=O)N[C@H](C(=O)N[C@@H](Cc1c[nH]cn1)C(=O)N[C@@H](CC(C)C)C(=O)N[C@@H](CC(C)C)C(=O)N[C@@H](C)C(=O)N[C@@H](CCCNC(=N)N)C(N)=O)C(C)C)C(C)C)C(C)C,"BAK1 (Homo sapiens, UniProt Q16611)","binding, FP",,pH 8,Kd,> 20 µM
CCCOc1ccc(-c2ccc(C#N)cc2)cc1,"Monocarboxylate transporter 10 (Rattus norvegicus, UniProt Q91Y77)","binding, ITC",,,Kd,0.356 µM
CN(C)c1ccc(C2=Nc3sc4cc(C(F)(F)F)ccc4[n+]3[B-](F)(F)O2)cc1,INS amyloid fibrils,"binding, fluorescence saturation",,,Kd,0.695 ± 0.066 µM
CCc1nc2cc3ccccc3cc2cc1C(=O)N1CCC[C@H]1C(=O)N[C@@H](CCC/C=C/CCC[C@H](NC(=O)[C@@H]1CCCN1C(=O)c1cc2cc3ccccc3cc2nc1CC)C(=O)N[C@@H](CCCCN)C(=O)NCCCN)C(=O)N[C@@H](CCCCN)C(=O)NCCCN,(CUG)2 RNA,SPR,,,Kd,0.568 µM
O=C1[C@@H]2CCC[C@H]([C@@H](C(O)CO)CN1Cc1ccccn1)N2S(=O)(=O)c1cc(Cl)cc(Cl)c1 (stereo partly drawn),FKBP4 FK1 domain,competitive fluorescence polarization,,"protein 10 nM, together with: 1 nM tracer",Kd,0.025 ± 0.003 µM
CC(=O)Nc1ccc(C2CCCCC2)cc1,,liver microsome stability,human liver microsomes,"1 µM, without NADPH",hepatic clearance,18 mL/min/kg
CN(C)c1ccc2c(c1)C(=O)N(CCc1ccc(OS(N)(=O)=O)cc1)C2=O,CA2,binding,,,Kd,0.13 µM
CC[C@H](C)[C@H](NC(=O)[C@H](Cc1ccc(O)cc1)NC(=O)[C@@H](NC(=O)[C@H](CCCNC(=N)N)NC(=O)[C@@H](N)CC(=O)O)C(C)C)C(=O)N[C@@H](Cc1c[nH]cn1)C(=O)N1CCC[C@H]1C(=O)N[C@@H](Cc1ccccc1)C(=O)N[C@@H](Cc1c[nH]cn1)C(=O)O,"AGTR2 (Homo sapiens, UniProt P50052)","binding, SPR",,,Kd,5.95 µM
Cc1ccc(-c2ccc(C3CCCCC3)cc2)cn1,,liver microsome stability,human liver microsomes,"1 µM, without NADPH",hepatic clearance,11 mL/min/kg
CN(C)c1ccc(/C=C/c2cc(/C=C3\Sc4ccccc4N3CCCN3CCCC3)c3ccccc3[n+]2C)cc1,hTERT promoter G-quadruplex DNA (human),isothermal titration calorimetry,,"pH 7.4, 25 °C, 2% DMSO, 60 mM KCl",Kd,2.37 µM
CCOC(=O)C1CC(CC)C2C=CC3CCN(C(=O)C4CCC5C=CC6(CCCN6C(=O)C(Cc6ccccc6Cl)NC(C)=O)C(=O)N54)C3C(=O)N12 (stereo not drawn),"Profilin-1 (PFN1, Homo sapiens, UniProt P07737)","binding, NMR",,,Kd,210 µM
CCCC(=O)Nc1ccc(-c2ccnc(C(=O)O)c2)cc1,Tumor necrosis factor receptor superfamily member 1A extracellular domain,"binding, SPR OneStep",,,Kd,1030 ± 50 µM

# Some of these lines once more:
SMILES,tested on,assay,system,conditions,endpoint,value
CCc1nc2cc3ccccc3cc2cc1C(=O)N1CCC[C@H]1C(=O)N[C@@H](CCC/C=C/CCC[C@H](NC(=O)[C@@H]1CCCN1C(=O)c1cc2cc3ccccc3cc2nc1CC)C(=O)N[C@@H](CCCCN)C(=O)NCCCN)C(=O)N[C@@H](CCCCN)C(=O)NCCCN,(CUG)2 RNA,SPR,,,Kd,0.568 µM
O=C(O)c1ccc(-c2ccc3[nH]ccc3c2)nn1,Tumor necrosis factor receptor superfamily member 1A extracellular domain,"binding, SPR OneStep",,,Kd,198 ± 87 µM
Cc1ccc(-c2ccc(C3CCCCC3)cc2)cn1,,liver microsome stability,human liver microsomes,"1 µM, without NADPH",hepatic clearance,11 mL/min/kg
CC(=O)N[C@@H](CCCNC(=N)N)C(=O)N[C@H](C(=O)N[C@@H](CCCCN)C(=O)N[C@@H](CO)C(=O)N[C@@H](CCCNC(=N)N)C(=O)N[C@H](C(=O)N[C@@H](Cc1c[nH]c2ccccc12)C(=O)N[C@@H](C)C(=O)NCC(=O)N[C@@H](CCC(=O)O)C(=O)N[C@@H](CCCCN)C(=O)N[C@@H](CO)C(=O)N[C@@H](CCCCN)C(=O)N[C@@H](CCCNC(=N)N)C(N)=O)[C@@H](C)OP(=O)(O)O)[C@@H](C)O,14-3-3 protein epsilon,"binding, SPR",,,Kd,0.15 µM
